# Measured values of several laboratories.
# Protocols differ between the studies behind these lines. “And” joins repeats or separate records; there may be more than shown. ± gives the spread as reported.
# B1: human DHRS2; sequence looked up; chain SSTGIDRKGVLANRVAVVTGSTSGIGFAIARRLARDGAHVVISSRKQQNVDRAMAKLQGEGLSVAGIVCHVGKAEDREQLVAKALEHCGGVDFLVCSAGVNPLVGSTLGTSEQIWDKILSVNVKSPALLLSQLLPYMENRRGAVILVSSIAAYNPVVALGVYNVSKTALLGLTRTLALELAPKDIRVNCVVPGIIKTDFSKVFHGNESLWKNFKEHHQLQRIGESEDCAGIVSFLCSPDASYVNGENIAVAGYSTRL
# B2: recombinant human GDNF; sequence looked up; chain SPDKQMAVLPRRERNRQAAAANPENSRGKGRRGQRGKNRGCVLTAIHLNVTDLGLGYETKEELIFRYCSGSCDAAETTYDKILKNLSRNRRLVSDKVGQACCRPIAFDDDLSFLDDNLVYHILRKHSAKRCGCI
# B3: interferon gamma; sequence looked up; chain QDPYVKEAENLKKYFNAGHSDVADNGTLFLGILKNWKEESDRKIMQSQIVSFYFKLFKNFKDDQSIQKSVETIKEDMNVKFFNSNKKKRDDFEKLTNYSVTDLNVQRKAIHELIQVMAELSPAAKTGKRKRSQMLFRG
# B4: gasdermin-A (human); sequence looked up; chain MTMFENVTRALARQLNPRGDLTPLDSLIDFKRFHPFCLVLRKRKSTLFWGARYVRTDYTLLDVLEPGSSPSDPTDTGNFGFKNMLDTRVEGDVDVPKTVKVKGTAGLSQNSTLEVQTLSVAPKALETVQERKLAADHPFLKEMQDQGENLYVVMEVVETVQEVTLERAGKAEACFSLPFFAPLGLQGSINHKEAVTIPKGCVLAFRVRQLMVKGKDEWDIPHICNDNMQTFPPGEKSGEEKVILIQASDVGDVHEGFRTLKEEVQRETQQVEKLSRVGQSSLLSSLSKLLGKKKELQDLELALEGALDKGHEVTLEALPKDVLLSKEAVGAILYFVGALTELSEAQQKLLVKSMEKKILPVQLKLVESTMEQNFLLDKEGVFPLQPELLSSLGDEELTLTEALVGLSGLEVQRSGPQYMWDPDTLPRLCALYAGLSLLQQLTKAS
Substance,tested on,test,test system,setting,how to read,endpoint,result
B1 (human DHRS2),CYB5R4 knockout human cells,"PP4 interaction, 3xFLAG-PP4C IP-MS",,concentration not given,baseline: CYB5R4 KO over parental,log2 fold change,-4.71
B2 (recombinant human GDNF),,"cell counting on sections, refers to: tyrosine hydroxylase","rat, 6-OHDA lesion model, substantia nigra pars compacta, intact side",3 µg/24 h,,TH-immunoreactive cell count,1270 ± 89.4
B3 (interferon gamma),,proteinuria inducer,FVB mice,"dose not given, 0 to 72 h",,urine albumin/creatinine ratio AUC,481 and 293 and 738 and 348 and 625 and 533
cotadutide,,"metabolomics, refers to: hepatic tryptophan","ob/ob mice on AMLN diet, NASH model, liver",dose not given,,metabolite level,1.03 ± 0.07 scaled intensity
heparin sodium,,,human,"intravenous infusion, 8 IU/kg/h, day 1 to 6",,PT AUEC,1830 h·s
semaglutide,,,"Wistar rat, male, diet-induced obese","subcutaneous, last 5 days of treatment",,caloric intake,79.6 ± 2.8 kcal/day
maraviroc,,"Western blot, refers to: GSK-3β phospho-Tyr216","mice, NSG hu-PBL, HIV-infected, somatosensory cortex","i.p., 120 mg/kg twice daily, 3 weeks post infection, normalised to total GSK-3β","baseline: HIV-infected untreated mice, decrease",protein level,5.2 fold
B4 (gasdermin-A),CYB5R4 knockout human cells,"PP4 interaction, 3xFLAG-PP4C IP-MS",,concentration not given,baseline: CYB5R4 KO over parental,log2 fold change,0.48
liraglutide,,,"Wistar rat, female, diet-induced obese, blood, fasted","subcutaneous, dose not given, after 4 weeks treatment",,serum cholesterol,78 ± 4.3 mg/dL
difelikefalin,,,Japanese haemodialysis patients with pruritus,"intravenous, 0.25 µg/kg, 8 weeks",,PGIC minimally worse,0%

# For quick reference, copied from above:
Substance,tested on,test,test system,setting,how to read,endpoint,result
B4 (gasdermin-A),CYB5R4 knockout human cells,"PP4 interaction, 3xFLAG-PP4C IP-MS",,concentration not given,baseline: CYB5R4 KO over parental,log2 fold change,0.48
